Assay results gathered from unrelated publications.
Compare with care: the assays were run in different laboratories. ± gives the spread as reported.

O=C(CCCN1CC=C(n2c(=O)[nH]c3ccccc32)CC1)c1ccc(F)cc1 — heart rate (male Hartley guinea pigs, anaesthetized; intravenous, 0.3 mg/kg group, baseline before infusion): 233 ± 0.4 beats/min
Cl.[2H]C([2H])([2H])CC(=O)c1cnc(NC(=O)C2CC2)cc1Nc1cccc(-c2ncn(C([2H])([2H])[2H])n2)c1OC — elimination rate constant (human, fed, plasma; oral, 25 mg, single dose, liquid formulation): 2.44e-05 s⁻¹
Cn1cnc2c(F)c(Nc3ccc(Br)cc3Cl)c(C(=O)NOCCO)cc21 — peripheral volume of distribution (human, plasma; oral, dose not given, first-order absorption): 52.2 L
COc1ccc2nc([S@@+]([O-])Cc3ncc(C)c(OC)c3C)[nH]c2c1 — AUC(0-8 h) (human male, dried plasma spots; oral, 5 mg racemic omeprazole): 0.235 µM·h
O=C(O)CCC(=O)O.[2H]C([2H])([2H])Oc1cc(C)c2[nH]ccc2c1CN1CC[C@@H](C2CC2)C[C@H]1c1ccc(C(=O)O)cc1 — subjects with sinus bradycardia TEAE (multiple ascending dose; healthy Chinese subjects; 300 mg once daily): 0%
CNCc1ccc(-c2[nH]c3cc(F)cc4c3c2CCNC4=O)cc1 — anaemia incidence (patients; oral, 600 mg twice daily, grade 5): 0%
O=C(Nc1ccc(OC(F)(F)Cl)cc1)c1cnc(N2CC[C@@H](O)C2)c(-c2ccn[nH]2)c1 — grade ≥3 event rate (per laboratory record, item: amylase increase; human patients; oral, dose not given, dose-finding study): 0.3%
C=CC(=O)NC1CCN(c2ncc3ncnc(Nc4ccc(Oc5ccc6c(c5)ncn6C)c(C)c4)c3n2)CC1 — AUC(0-tz) (item: total radioactivity; healthy male volunteers, whole blood; oral solution, 60 mg, with: [14C]-labelled compound): 38.7 µM·h
CCCCCCC#Cc1cncc(-c2nnc(SCc3ccc(Cl)cc3)n2C2CC2)c1 — CC50 (African green monkey cells; 72 h): 25 ± 2.45 µM
COC(=O)N[C@H](C(=O)N[C@@H](Cc1ccccc1)[C@@H](O)CN(Cc1ccc(-c2ccccn2)cc1)NC(=O)[C@@H](NC(=O)OC)C(C)(C)C)C(C)(C)C — amorphous solubility (ultracentrifugation; phosphate buffer with HPMCAS; 15 min, pH 6.5, 3% BSA): 126 ± 7.7 µg/mL
CNC(=O)c1ccc(-c2cnc3ncc(Cc4ccc5ncccc5c4)n3n2)cc1F — AST increased incidence (HCC patients; oral, 600 mg twice daily, all grades RP2D expansion): 27%
Cc1ccc(C(=O)N(CCCN)C(c2nc3snc(C)c3c(=O)n2Cc2ccccc2)C(C)C)cc1 (centres unmarked) — patients with adverse event (stomatitis grade ≥3 (CTCAE); human patients; intravenous, 4 mg/day): 0%
O=C1CC[C@H](Cc2ccc(OS(=O)(=O)O)c(O)c2)O1 — CSF concentration (human CSF; concentration not given, mean): not detected
C[C@@H](c1nc(-c2ccc(C#N)cc2)cs1)[C@](O)(Cn1cncn1)c1cc(F)ccc1F — treatment-emergent adverse events (healthy human subjects, both sexes; oral, 200 mg, 13 days, study): 61.1%
O=C(O)CNC(=O)c1cccc(O)c1 — CSF concentration (human CSF; concentration not given, mean): not detected
CN(C(=O)n1cnc(-c2cccnc2)c1)C1CCCCC1 — tissue concentration (Wistar rat, pons; oral, 10 mg/kg, 1 h, single dose): 74.3 ± 15 ng/g
O=c1c(O)c(-c2ccc(O)cc2)oc2cc(O)cc(O)c12 — CSF concentration (human CSF; concentration not given, mean): not detected
CC(C)C[C@H](NC(=O)[C@H](CC(C)C)NC(=O)[C@H](Cc1c[nH]c2ccccc12)NC(=O)[C@H](CCC(=O)O)NC(=O)[C@@H](NC(=O)[C@H](Cc1ccccc1)NC(=O)[C@H](CCC(=O)O)NC(=O)[C@H](CCCCNC(=O)COCCOCCNC(=O)COCCOCCNC(=O)CC[C@H](NC(=O)CCCCCCCCCCCCCCCCCCC(=O)O)C(=O)O)NC(=O)[C@H](C)NC(=O)[C@H](CCCCN)NC(=O)[C@H](CCCCN)NC(=O)[C@H](CCC(=O)O)NC(=O)[C@H](CC(=O)O)NC(=O)[C@H](CC(C)C)NC(=O)[C@H](Cc1ccc(O)cc1)NC(=O)[C@H](CCCCN)NC(=O)[C@H](CO)NC(=O)[C@H](Cc1ccc(O)cc1)NC(=O)[C@H](CC(=O)O)NC(=O)[C@H](CO)NC(=O)[C@@H](NC(=O)[C@H](Cc1ccccc1)NC(=O)[C@@H](NC(=O)CNC(=O)[C@H](CCC(N)=O)NC(=O)C(C)(C)NC(=O)[C@@H](N)Cc1c[nH]cn1)[C@@H](C)O)[C@@H](C)O)C(C)C)C(=O)N[C@@H](CCC(=O)O)C(=O)NCC(=O)NCC(=O)N1CCC[C@H]1C(=O)N[C@@H](CO)C(=O)N[C@@H](CO)C(=O)NCC(N)=O — Cmin,ss (human, plasma; subcutaneous, 16 mg weekly, week 20, cohorts 1 and 2): 2940 ng/mL
O=C1CCc2ccc(OCCCCN3CCN(c4cccc(Cl)c4Cl)CC3)cc2N1 — cardiovascular symptom frequency (CYP2D6 normal metabolizers; concentration not given, genotype-based phenotype, long-acting oral or depot): 2.5%
C[C@@H](Oc1ccc(S(C)(=O)=O)cc1C(=O)N1C[C@@H]2C[C@]2(c2cc(C(F)(F)F)on2)C1)C(F)(F)F — incidence of Flatulence (human; oral, 25 mg): 16.7%
CC1=NN(c2ccccc2)C(=O)C1 — tissue concentration (rat Sprague-Dawley pups PN4, right cerebral cortex; intraperitoneal, 30 mg/kg, 1 h): 265 ± 57 ng/mL
C=CC(=O)N1CCC[C@@H](n2nc(-c3ccc(Oc4ccccc4)cc3)c3c(N)ncnc32)C1 — dissolved amount (USP type II dissolution; powder; 120 min, pH 6.8): 7.48%
C[C@@H](Nc1cc(F)cc(F)c1)c1cc(C(=O)N(C)C)cc2c(=O)cc(N3CCOCC3)oc12 — treatment-related serious adverse events (item: confusional state; patients with advanced solid tumours; oral, dose not given, dose finding phase I): 0%
CCc1cc(C(=O)NC)c2nccc(N3CCc4c(cc(Cn5ccnc5)cc4-c4cn(C)nc4C(F)(F)F)C3=O)c2c1 — serum MCH change (Sprague Dawley rats; oral, 50 mg/kg once daily, 7 days; reference: vehicle): 3.42%
C[C@@H](O)CCOC(=O)C[C@@H](C)O — systolic blood pressure (human; oral drink, 60 min post dose, mean): 109 mmHg
O=C1OC[C@H](Cc2cccc(O)c2)[C@H]1Cc1cccc(O)c1 — CSF concentration (human CSF; concentration not given, mean): not detected
Cn1cncc1-c1c(F)cncc1NC(=O)c1c(N)nn2cc(F)cnc12 — Q/F (population PK model; patients with solid tumours, plasma; oral): 3.59 L/h
COc1ccc([C@@H](O)c2cc(-c3ncnc4cc(N5CCOCC5)ccc34)c(F)cc2Cl)nn1 — lymphopenia TEAE incidence (locally advanced rectal cancer patients; 150 mg, with: capecitabine and radiotherapy): 33%
Cc1cc(NC2CCN(C(=O)OC3CCN(C(=O)/C=C/CN(C)C)C3)CC2)n2ncc(C(C)C)c2n1 (centres unmarked) — patients with TEAE (CTCAE v4.0, item: Hypomagnesemia; patients with advanced solid tumours; oral, dose not given, all schedules, grade 3 or higher): 0%
COc1ccc2[nH]c([S+]([O-])Cc3ncc(C)c(OC)c3C)nc2c1 (centres unmarked) — t1/2 (healthy Chinese volunteers, CYP2C19 poor metabolizers; oral, 20 mg, enteric-coated capsules): 2.64 ± 0.89 h
C=CS(=O)(=O)Nc1ccc(OC)c(-c2c[nH]c3ncc(-c4cncc(C(=O)N(C)C)c4)cc23)c1 — hydrolytic half-life (HPLC; 50 µM, 37 °C, no lysine, followed to 24 h): > 24 h
Cc1ccc([C@@H]2O[C@H](CO)[C@@H](O)[C@H](O)[C@H]2O)cc1Cc1ccc(-c2ccc(F)cc2)s1 — urinary magnesium excretion change (Japanese type 2 diabetes patients; 100 mg, day 15, 24 h urine collection; reference: baseline): 8.82 mg
O=C1NCCc2nc(OCc3cccc(F)c3)ccc21 — Irwin test score (item: skin color; Sprague-Dawley rat male; oral, 100 mg/kg, 30 min; direction not given): 0
Cc1cc(-c2nccc3c2ccn3CC(=O)Nc2ccc(-c3cnccn3)cn2)ccn1 — respiratory thoracic mediastinal TEAEs (healthy human volunteers; oral, 20 mg once daily, 14 days, multiple ascending dose): 0%
COc1ccc2[nH]c([S+]([O-])Cc3ncc(C)c(OC)c3C)nc2c1 (centres unmarked) — mild adverse events (healthy male humans; 40 mg, 4 day, compound alone): 0%
CCN1/C(=C/C(C)=O)Sc2ccc(F)cc21 — heart rate, blood pressure, ECG (cynomolgus monkey; oral, 100 mg/kg; reference: vehicle): no effect
CC(C)(C)c1ccc(O)c(CN(Cc2cc(C(C)(C)C)ccc2O)C2CCC(NC(N)=O)CC2)c1 (centres unmarked) — terminal elimination rate constant (C57BL/6 mice, male, brain; intraperitoneal, 10 mg/kg, single dose): 2.72e-05 s⁻¹
Cc1nc2ccc(OCc3ccc(C(F)(F)F)cc3)cc2[nH]1 — terminal elimination rate constant (Balb/c mice, male, plasma; intravenous, 1 mg/kg): 3.33e-05 ± 2.78e-05 s⁻¹
COc1cc2nccc(Oc3ccc(NC(=O)c4cc5c(n(-c6ccccc6)c4=O)CCCC5=O)nc3)c2cc1OC — patients with serious TEAEs (human, relapsed/refractory AML; oral, dose not given, all dose groups combined): 85%
NC1(C(=O)N[C@@H](CCO)c2ccc(Cl)cc2)CCN(c2nc[nH]c3nccc2-3)CC1 — incidence of lower abdominal pain (metastatic CRPC patients; 400 mg b.i.d., grade 3 to 4, treatment-related, with: enzalutamide 160 mg daily): 0%
Cc1c(Cl)c(C)[n+]([O-])c(Cl)c1-c1noc(-c2cc(O)c(O)c([N+](=O)[O-])c2)n1 — TEAEs causing discontinuation (healthy Caucasian subjects; oral, 25 mg): 0%
COc1cc(N)c(Cl)cc1C(=O)NC1CCN(CCCOc2ccc(F)cc2)CC1OC (centres unmarked) — heart rate (male Hartley guinea pigs, anaesthetized; intravenous, 0.1 mg/kg over 10 min, after infusion): 228 ± 0.9 beats/min
C[C@@H](N)C1CCN(S(=O)(=O)c2cccc3cnccc23)CC1 — treatment-related TEAEs (healthy volunteers; 150 mg single dose, fed): 30%
Cc1ncnc2c1ccn2[C@@H]1C[C@H](Oc2cc(C(F)F)c(F)c3c2CNCC3)[C@@H](O)[C@H]1O — AUC(tau) (human, plasma; 0.5 mg once daily): 40.2 ng·h/mL
CCC(C)n1ncn(-c2ccc(N3CCN(c4ccc(OCC5COC(Cn6cncn6)(c6ccc(Cl)cc6Cl)O5)cc4)CC3)cc2)c1=O (centres unmarked) — incidence of nervous system disorders (healthy human volunteers; oral, 200 mg, compound alone cohort): 0%
Cc1nc2cccc(OCC(C)(C)C(=O)NC(C)C)c2c(N)c1C(=O)O — Cmax ratio female over male (Sprague-Dawley rat, plasma; oral, 10 mg/kg, day 1; reference: female over male): 2.64 ± 0.56
CCO[C@H]1CCN(Cc2c(OC)cc(C)c3[nH]ccc23)[C@H](c2ccc(C(=O)O)cc2)C1 — unbound AUC0–12 (human mild hepatic impairment, plasma; oral, 200 mg single dose, mean): 4940 ng·h/mL
CN(C(=O)n1cnc(-c2ccc[n+]([O-])c2)c1)[C@H]1CC[C@H](O)CC1 — tissue concentration (rat, hippocampus; oral, 10 mg/kg daily for 5 days, 72 h): 13.4 ± 0.3 ng/g
CCOc1c([C@H](C)n2nc(C)c3c(N)ncnc32)cc(Cl)c(F)c1[C@@H]1CNC(=O)C1 — ECG observations (item: QTcF change above 60 ms; previously treated B-cell malignancy; oral, 30 mg once daily, overall population; reference: baseline): 0%
C=CC(=O)Nc1cc(Nc2nccc(Nc3cc(Cl)c(F)cc3C(C)(C)O)n2)c(OC)cc1N1CC[C@@H](N(C)C)C1 — absorption rate constant (two-compartment PK model; mouse): 0.49 h⁻¹
CCOCc1nc(O)c(-c2nnc(Cc3ccc(Cl)cn3)o2)c(O)c1-c1c(OC)cccc1OC — plasma concentration (anaesthetised rat, plasma; intravenous infusion, 1 µg/kg/min, 5 min): 47 ± 4 nM
COc1c(N2C[C@@H]3CCCN[C@@H]3C2)c(F)cc2c(=O)c(C(=O)O)cn(C3CC3)c12 — heart rate (male Hartley guinea pigs, anaesthetized; intravenous, 5 mg/kg over 10 min, after infusion): 228 ± 1.3 beats/min
COc1cc(Nc2ncc3c(n2)-c2ccc(Cl)cc2C(c2c(F)cccc2OC)=NC3)ccc1C(=O)O — anaemia incidence (patients; oral, dose not given, grade 3, any attribution, with: pembrolizumab): 17%
Cc1cc(C)c(CNC(=O)c2cc(Cl)c3c(c2C)O[C@@](C)([C@H]2CC[C@H](N(C)C)CC2)O3)c(=O)[nH]1 — patients with TEAE (item: Arthralgia; human patients; oral, 200 mg once daily, 1 day onset day 14): 0%
CNc1ccc(-c2nc3ccc(O)cc3s2)cc1 [carbon-11 labelled] — uptake (ex vivo biodistribution; normal B6SJL mice, cecum; intravenous, 30 min): 0.413 ± 0.082 SUV
CCN(c1cc(-c2ccc(CN3CCOCC3)cc2)cc(C(=O)NCc2c(C)cc(C)[nH]c2=O)c1C)C1CCOCC1 — organ weight (mouse xenograft, lung; dose not given): 150 mg

Repeated from above:
O=C1CCc2ccc(OCCCCN3CCN(c4cccc(Cl)c4Cl)CC3)cc2N1 — cardiovascular symptom frequency (CYP2D6 normal metabolizers; concentration not given, genotype-based phenotype, long-acting oral or depot): 2.5%
C[C@@H](Oc1ccc(S(C)(=O)=O)cc1C(=O)N1C[C@@H]2C[C@]2(c2cc(C(F)(F)F)on2)C1)C(F)(F)F — incidence of Flatulence (human; oral, 25 mg): 16.7%
CC1=NN(c2ccccc2)C(=O)C1 — tissue concentration (rat Sprague-Dawley pups PN4, right cerebral cortex; intraperitoneal, 30 mg/kg, 1 h): 265 ± 57 ng/mL
C=CC(=O)N1CCC[C@@H](n2nc(-c3ccc(Oc4ccccc4)cc3)c3c(N)ncnc32)C1 — dissolved amount (USP type II dissolution; powder; 120 min, pH 6.8): 7.48%
C[C@@H](Nc1cc(F)cc(F)c1)c1cc(C(=O)N(C)C)cc2c(=O)cc(N3CCOCC3)oc12 — treatment-related serious adverse events (item: confusional state; patients with advanced solid tumours; oral, dose not given, dose finding phase I): 0%
CCc1cc(C(=O)NC)c2nccc(N3CCc4c(cc(Cn5ccnc5)cc4-c4cn(C)nc4C(F)(F)F)C3=O)c2c1 — serum MCH change (Sprague Dawley rats; oral, 50 mg/kg once daily, 7 days; reference: vehicle): 3.42%
C[C@@H](O)CCOC(=O)C[C@@H](C)O — systolic blood pressure (human; oral drink, 60 min post dose, mean): 109 mmHg
O=C1OC[C@H](Cc2cccc(O)c2)[C@H]1Cc1cccc(O)c1 — CSF concentration (human CSF; concentration not given, mean): not detected
Cn1cncc1-c1c(F)cncc1NC(=O)c1c(N)nn2cc(F)cnc12 — Q/F (population PK model; patients with solid tumours, plasma; oral): 3.59 L/h
